Published values gathered from unrelated publications.
Lines come from different studies, so protocols differ. “And” joins repeats or separate records; there may be more than shown. ± gives the spread as reported.
Organism: Plasmodium falciparum

SMILES	test	system	conditions	IC50
CCCOC(=O)C1=C(C)NC2=C(C(=O)CC(c3ccc(OC)c(OC)c3)C2)C1c1ccccc1F (centres unmarked)	male gamete formation	stage V gametocytes	24 h, compound carried over	88.8 nM
CCN(CC)CCCC(C)Nc1ccnc2cc(Cl)ccc12 (centres unmarked)	parasite growth, [3H]hypoxanthine incorporation	NF54	72 h	8 nM
CCOC(=O)C(=CNc1cccc(N(C)C)c1)C(=O)OCC	parasite growth, [3H]hypoxanthine incorporation	NF54 (chloroquine-sensitive)		26000 nM and 26300 nM
Oc1cccc(C(Nc2nccs2)c2ccc3cccnc3c2O)c1 (centres unmarked)	schizont development	INDO	12 h, early to late schizont	< 5000 nM
Clc1ccc2c(Nc3ccc(N4CCN(C5CC5)CC4)cc3)ccnc2c1	parasite growth, SYBR Green	D6	72 h, blood stage	27 nM
CC(C)(C)c1ccc(O)c(CNC2CCCCC2)c1	exflagellation	stage V gametocytes	24 h, compound carried over	> 20000 nM
O=C(O)C1Cc2c([nH]c3ccccc23)C(Cc2ccc(Cl)cc2Cl)N1 (centres unmarked)	parasite growth	Dd2		> 10000 nM
CCN1CCC(c2ccc(Nc3ccnc4cc(Cl)ccc34)cc2)CC1	parasite growth, SYBR Green	DD2	72 h, drug-resistant strain, blood stage	11 nM
O=c1c2c([nH]c3ccccc13)-c1ccc(F)cc1C2	parasite growth	NF54	blood stage	44 nM
C[C@H]1[C@@H](Oc2cccc(N[C@@H]3[C@H](C)O[C@@H]4O[C@@]5(C)CC[C@H]6[C@H](C)CC[C@@H]3[C@@]46OO5)c2)O[C@@H]2O[C@@]3(C)CC[C@H]4[C@H](C)CC[C@@H]1[C@@]24OO3	parasite growth	D6	72 h, blood stage	< 10 nM
CCC(C)N1CCC(c2ccc(Nc3ccnc4cc(Cl)ccc34)cc2)CC1 (centres unmarked)	parasite growth, SYBR Green	DD2	72 h, drug-resistant strain, blood stage	9 nM
O=C1C(O)=C([C@H]2CC[C@H](c3ccc(Cl)cc3)CC2)C(=O)c2ccccc21	parasite growth, [3H]hypoxanthine incorporation	3D7		0.7 nM
Clc1ccc2c(Nc3ccc(N4CCOCC4)cc3)ccnc2c1	parasite growth, SYBR Green	DD2	72 h, drug-resistant strain, blood stage	≥ 250 nM
COc1ccc(C(=O)/C=C/c2cc(CN3CCN(c4ccnc5cc(Cl)ccc45)CC3)c(O)c(OC)c2)c(OC)c1	parasite growth	DD2	drug-resistant strain, blood stage	300 to 600 nM
CCN(CC)CCCC(C)Nc1ccnc2cc(Cl)ccc12 (centres unmarked)	parasite growth, SYBR Green	NF54	96 h, blood stage	13 nM
COc1cc2[nH]c(C)c(-c3ccc(Oc4ccc(OC(F)(F)F)cc4)cc3)c(=O)c2cc1Cl	parasite growth, SYBR Green I	D6, drug-sensitive	72 h	6 nM
Clc1ccc2c(Nc3ccc(N4CCNCC4)cc3)ccnc2c1	parasite growth, SYBR Green	DD2	72 h, drug-resistant strain, blood stage	30 nM
C=C(C)C1CCC2(CO)CCC3(C)C(CCC4C5(C)CCC(OC(=O)/C=C/c6ccc(O)cc6)C(C)(CO)C5CCC43C)C12 (centres unmarked)	parasite growth	Dd2 drug-resistant	72 h	650 ± 60 nM
FC(F)(F)Oc1ccc(-c2cnc3cc(Cl)ccc3c2Nc2ccc(C3CN(Cc4ccccc4)CCO3)cc2)cc1 (centres unmarked)	parasite growth, SYBR Green	DD2	72 h, drug-resistant strain, blood stage	≥ 250 nM
COc1ccc(C(=O)/C=C/c2ccc(OCc3cn(-c4ccnc5cc(Cl)ccc45)nn3)c(OC)c2)c(OC)c1	parasite growth	W2	drug-resistant strain, blood stage	90 nM

A few entries again:
SMILES	test	system	conditions	IC50
CC(C)(C)c1ccc(O)c(CNC2CCCCC2)c1	exflagellation	stage V gametocytes	24 h, compound carried over	> 20000 nM
